Published values collected from several papers.
Several values in a cell are separate wells, animals, samples, runs or records. Numbers after ± are the reported error.
NADH dehydrogenase [ubiquinone] iron-sulfur protein 7, mitochondrial/NADH dehydrogenase [ubiquinone] iron-sulfur protein 2, mitochondrial/MT-ND1: NADH dehydrogenase [ubiquinone] iron-sulfur protein 7, mitochondrial/NADH dehydrogenase [ubiquinone] iron-sulfur protein 2, mitochondrial/MT-ND1 (Homo sapiens, UniProt O75251+O75306+P03886)
FFAR4: Free fatty acid receptor 4 (FFAR4, Homo sapiens, UniProt Q5NUL3)
CXCR4: C-X-C chemokine receptor type 4 (CXCR4, Homo sapiens, UniProt P61073)
TRPM8: Transient receptor potential cation channel subfamily M member 8 (TRPM8, Homo sapiens, UniProt Q7Z2W7)
Kir3.1/Kir3.2: Kir3.1/Kir3.2 (Homo sapiens, UniProt P48051+P48549)
PDE1C isoform PDE1C2: Dual specificity calcium/calmodulin-dependent 3',5'-cyclic nucleotide phosphodiesterase 1C, isoform PDE1C2 (PDE1C, Homo sapiens, UniProt Q14123)
GAP50: Glideosome-associated protein 50 (GAP50, Plasmodium falciparum, UniProt Q8I2X3)

NC(=O)NOCCCCCCCCCCCC[P+](c1ccccc1)(c1ccccc1)c1ccccc1.O=C([O-])C(F)(F)F — oxygen consumption rate (NADH dehydrogenase [ubiquinone] iron-sulfur protein 7, mitochondrial/NADH dehydrogenase [ubiquinone] iron-sulfur protein 2, mitochondrial/MT-ND1; complex I-dependent respiration, Seahorse XF96; HCT-116; 2 µM, 24 h; reference: control): 51.9 ± 15%
O=Nc1c(NCCc2ccccc2)[nH]c(=O)[nH]c1=O — activation (FFAR4; agonist, β-arrestin recruitment; CHO cells; 10 µM): 1 ± 1%
C=CC(=O)N1CCC(COCC(=O)N2CCN(c3nc(-c4cnc(N)nc4C(F)F)nc(N4CCOC[C@@H]4C)n3)CC2)CC1 — remaining binding (Leukocyte tyrosine kinase receptor (LTK, Homo sapiens, UniProt P29376); KINOMEscan; 1 µM): 91%
Cc1ccc(S(=O)(=O)NCc2ccc(CNC(=O)c3ccc([N+](=O)[O-])cc3)cc2)cc1 — EC (CXCR4; binding, inhibitor, competitive binding; MDA-MB-231; together with: biotinylated TN14003): 10 nM
C[C@H](CCCOc1ccc(C(=O)O)cc1)[C@H]1CC[C@H]2[C@@H]3CC=C4C[C@@H](O)CC[C@]4(C)[C@H]3CC[C@]12C — efficacy (Oxysterols receptor LXR-beta (NR1H2, Homo sapiens, UniProt P55055); reporter gene, GAL4-LBD transactivation; HepG2): 11.8 ± 1.6%
COc1cc(O)c(CC=C(C)C)c(O)c1C(=O)/C=C/c1ccc(O)cc1 — Hill slope (Thyroxine 5-deiodinase (DIO3, Homo sapiens, UniProt P55073); biochemical): -0.87 and -0.84 and -0.91
O=C(ON1C(=O)CCC1=O)c1cc(C(F)(F)F)cc(C(F)(F)F)c1 — Hill slope (CD209 antigen (CD209, Homo sapiens, UniProt Q9NNX6); binding, grating-coupled interferometry; Man(α1,2)Man-PEG3 chip; 2 h, no Tris): 4
NCCS(=O)(=O)O — normalised MST signal (Sodium- and chloride-dependent taurine transporter (SLC6A6, Homo sapiens, UniProt P31641, S402A); binding, microscale thermophoresis; 7.81 µM, room temperature, together with: 50 nM labelled protein; higher = more binding): 0.0169
CCCCCCCCCNc1cc(=O)n(C)c(=O)[nH]1 — inhibition (FFAR4; antagonist, β-arrestin recruitment; CHO cells; 10 µM): 17 ± 2%
CC[C@@H]1[C@H](F)C(=O)N[C@@H]1COc1nccc2cc(C(N)=O)c(OC)cc12 — inhibition (Ribosomal protein S6 kinase alpha-1 (RPS6KA1, Homo sapiens, UniProt Q15418); ATP probe binding, KiNativ profiling, refers to: domain 1 activation loop; THP-1 cell lysate; 0.2 mM): 14.6%
Nc1cccc(-c2cc3c(Oc4cccc(O)c4)ncnc3[nH]2)c1 — remaining activity (TRPM8; antagonist; HEK293; 5 µM; reference: control): 100 ± 8.49%
Nc1nc2cc(F)c(F)cc2[nH]1 — Hill coefficient (Voltage-gated hydrogen channel 1 (HVCN1, Homo sapiens, UniProt Q96D96, F150A); proton current, inhibitor, inside-out patch clamp): 1.27 ± 0.1
CCCC(=O)Nc1ncnc2c1ncn2[C@@H]1O[C@@H]2COP(=O)(O)O[C@H]2[C@H]1O — relative binding affinity (anti-cAMP antibody; antibody binding, competitive cAMP EIA; concentration not given, acetylated samples; reference: EC50 cAMP over EC50 cpd, higher = stronger binding): 0.0043
CC(C)CCNc1cc(=O)[nH]c(=O)[nH]1 — activation (FFAR4; agonist, β-arrestin recruitment; CHO cells; 10 µM): 0%
O=C(COc1ccc(C(F)(F)F)cc1C(F)(F)F)Nc1cc(C2CCC2)nn1C1CCOCC1 — Emax (Kir3.1/Kir3.2; thallium flux, activator; HEK293; reference: standard compound): 49%
O=c1cc(NCCc2cccc(F)c2)[nH]c(=O)[nH]1 — agonist effect (FFAR4; agonist, β-arrestin recruitment; CHO cells; 10 µM; reference: 30 µM TUG-891): 0%
CC(C)[C@@H]1CC[C@@H](C)C[C@H]1O — exchange rate kex (TRPM8; 19F CPMG relaxation dispersion; concentration not given, 25 °C, together with: saturating ligand): 4000 ± 3000 s⁻¹
Cc1cc2c(c(=O)[nH]1)C(=O)O/C2=C\c1ccc(F)cc1OC(C)C — binding free energy (PDE1C isoform PDE1C2; enzyme activity, inhibitor; together with: 3H-cGMP substrate): -8.38 kcal/mol
COc1cc2ncnc(N3CCN(C(=O)Nc4ccc(Oc5ccccc5)cc4)CC3)c2cc1OC — remaining activity (TRPM8; antagonist; HEK293; 5 µM; reference: control): 114 ± 11.7%
CCOc1cc(-c2nncn2C)ccc1Nc1ncc2cc(C)nc(NCC(C)(C)C)c2n1 — displacement (Serine/threonine-protein kinase WNK2 (WNK2, Homo sapiens, UniProt Q9Y3S1); binding, LanthaScreen binding; 1 µM): 23%
Nc1ncnc2c1ncn2[C@@H]1O[C@H](CO[P@](=O)(O)O[P@](=O)(O)O[P@@](=O)(O)S)[C@@H](O)[C@H]1O — ΔG (GUK1 (Homo sapiens, UniProt Q16774, R148A); binding, ITC): -5.31 kcal/mol
O=c1nc(SCc2cc(F)cc(C(F)(F)F)c2)nc(SCc2csc3ccc(Cl)cc23)[nH]1 — decatenated DNA (DNA topoisomerase 2-alpha (TOP2A, Homo sapiens, UniProt P11388); decatenation; 0.12 µM, replicate 1): 0%
CC(C)(C)c1cc(C(=O)Nc2cccnc2)cc(C(=O)Nc2cccnc2)c1 — kon (GAP50; binding, surface plasmon resonance; 1:1 binding model): 17200 M⁻¹ s⁻¹
Cc1nn(C2CCS(=O)(=O)C2)c(C)c1NC(=O)COc1ccc(C(F)(F)F)cc1C(F)(F)F (stereo not shown) — activity (Kir3.1/Kir3.2; activator, thallium flux; HEK293; concentration not given): inactive
CC1=C[C@H](O)CC(C)(C)[C@H]1/C=C/C(C)=C/C=C/C(C)=C/C=C/C=C(C)/C=C/C=C(C)/C=C/C1=C(C)C[C@@H](O)CC1(C)C — binding stoichiometry (Beta-lactoglobulin (LGB, Bos taurus, UniProt P02754); isothermal titration calorimetry; concentration not given): 2
CCCNc1cc(=O)[nH]c(=O)[nH]1 — activation (FFAR4; agonist, β-arrestin recruitment; CHO cells; 10 µM): 0%
COc1cc(O)c2c(c1)oc(=O)c1c3cc(O)c(O)cc3oc21 — ΔH (Alpha-glucosidase MAL12 (MAL12, Saccharomyces cerevisiae S288c, UniProt P53341); fluorescence quenching; 304 K): -25 kcal/mol
N#Cc1ccsc1NC(=O)COc1cc(Cl)ccc1Cl — Emax (Kir3.1/Kir3.2; thallium flux, activator; HEK293; reference: standard compound): < 10%
C[C@]12CCC(=O)C=C1CC[C@@H]1[C@@H]2[C@@H](O)C[C@]2(CO)[C@@H](C(=O)CO)CC[C@@H]12 — maximal response (Mineralocorticoid receptor (NR3C2, Homo sapiens, UniProt P08235); reporter gene, agonist; reference: baseline): 27 fold
CCC(=O)NS(=O)(=O)c1ccc(-c2c(-c3ccccc3)noc2C)cc1 — activation (Nuclear receptor subfamily 4 group A member 2 (Homo sapiens, UniProt P43354); reporter gene, full-length homodimer NurRE reporter; 50 µM; reference: vehicle): 0.53 fold
Cc1cc2c(c(=O)[nH]1)C(=O)O/C2=C\c1ccc(Br)cc1OC(C)C — ligand efficiency (PDE1C isoform PDE1C2; enzyme activity, inhibitor; together with: 3H-cGMP substrate): 0.34
NC(=O)NO — oxygen consumption rate (NADH dehydrogenase [ubiquinone] iron-sulfur protein 7, mitochondrial/NADH dehydrogenase [ubiquinone] iron-sulfur protein 2, mitochondrial/MT-ND1; complex I-dependent respiration, Seahorse XF96; HCT-116; 10 µM, 24 h; reference: control): 84.7 ± 7.9%
Nc1ccc(C(=O)O)cc1 — current density (BEST1 (Homo sapiens, UniProt O76090); whole-cell patch clamp; HEK293 transiently expressing channel; concentration not given, membrane potential -60 mV): -31.3 pA/pF and -61.4 pA/pF and -55.6 pA/pF and -43.3 pA/pF and -48.3 pA/pF and -30.5 pA/pF and -29.1 pA/pF
Nc1nc2c(ncn2[C@@H]2O[C@@H]3COP(=O)(O)O[C@H]4[C@@H](O)[C@H](n5cnc6c(=O)[nH]c(N)nc65)O[C@@H]4COP(=O)(O)O[C@H]3[C@H]2O)c(=O)[nH]1 — ΔH (Cell cycle histidine kinase CckA, CA domain (Caulobacter vibrioides, UniProt Q9X688); ITC; together with: AMPPNP 5 mM): 2.04 ± 0.0631 kcal/mol
CN1CCC(CNc2ccc3ncc(-c4cccc(OC(F)(F)F)c4)n3n2)CC1 — response (Muscarinic acetylcholine receptor M2 (CHRM2, Homo sapiens, UniProt P08172); cAMP, antagonist, cell-based GPCR; 10 µM; reference: control): > 50%
Cc1cc(NCCc2ccccc2)nc(N=C(N)Nc2ccc(Cl)cc2)n1 — kon (GAP50; binding, surface plasmon resonance; 1:1 binding model): 3260 M⁻¹ s⁻¹
C=CC(=O)N1CCC[C@@H](n2nc(-c3ccc(Oc4ccccc4)cc3)c3c(N)ncnc32)C1 — remaining activity (Tyrosine-protein kinase ABL2 (ABL2, Homo sapiens, UniProt P42684); 1 µM): 352%
[2H]C([2H])(N)c1ccc(C(F)(F)F)cc1 — pKa1 (Amine oxidase [flavin-containing] A (Maoa, Rattus norvegicus, UniProt P21396); kcat/Km ascending limb free E S, substrate; pH 6.5-9.5): 8.1 ± 0.2
NC(=O)NOCCCCCCCCCCCCCCCCCCCC[P+](c1ccccc1)(c1ccccc1)c1ccccc1.O=C([O-])C(F)(F)F — oxygen consumption rate (NADH dehydrogenase [ubiquinone] iron-sulfur protein 7, mitochondrial/NADH dehydrogenase [ubiquinone] iron-sulfur protein 2, mitochondrial/MT-ND1; complex I-dependent respiration, Seahorse XF96; HCT-116; 1 µM, 24 h; reference: control): 35.9 ± 4.82%
COc1ccc(CCNc2cc(=O)[nH]c(=O)[nH]2)cc1 — activation (FFAR4; agonist, β-arrestin recruitment; CHO cells; 10 µM): 0%
O=C(NCc1ccc(CNS(=O)(=O)c2ccccc2)cc1)c1cccc(F)c1 — EC (CXCR4; binding, inhibitor, competitive binding; MDA-MB-231; together with: biotinylated TN14003): 100 nM
CCCCCCCCNc1c[nH]c(=O)[nH]c1=O — inhibition (FFAR4; antagonist, β-arrestin recruitment; CHO cells; 10 µM): 38 ± 4%
Nc1ncnc2c1ncn2[C@@H]1O[C@H](COP(=O)(O)CP(=O)(O)OP(=O)(O)O)[C@@H](O)[C@H]1O — calcium influx (P2X purinoceptor 1 (P2RX1, Homo sapiens, UniProt P51575, S286A); calcium influx; 10 nM; reference: ionomycin response): 0%
O=C(Nc1cccc(Nc2nccc(Nc3cccc(C(F)(F)F)c3)n2)c1)C1CC1 — remaining activity (TRPM8; antagonist; HEK293; 5 µM; reference: control): 87.9 ± 12.1%
NC(=O)NOCCCCCCCCCCCCCC[P+](c1ccccc1)(c1ccccc1)c1ccccc1.O=C([O-])C(F)(F)F — oxygen consumption rate (NADH dehydrogenase [ubiquinone] iron-sulfur protein 7, mitochondrial/NADH dehydrogenase [ubiquinone] iron-sulfur protein 2, mitochondrial/MT-ND1; complex I-dependent respiration, Seahorse XF96; HCT-116; 0.1 µM, 24 h; reference: control): 84.1 ± 5.17%
O=C(COP(=O)(O)O)[C@@H](O)[C@H](O)[C@H](O)COP(=O)(O)O — enzyme activity (PGM1 (Homo sapiens, UniProt P36871); 0.5 mM, unit not given; reference: activity at 0 mM set to 100): 89.3 and 89.7 and 90.3
CC(=O)Nc1ccc(O)cc1 — chemical shift change (Bromodomain-containing protein 4 (BRD4, Homo sapiens, UniProt O60885); 19F NMR, refers to: tyrosine 65; 1470 µM; reference: free protein): 0.013 ppm
Cc1ccc2c(c1C)NC(=O)[C@]21NN=C(c2ccccc2)S1 — koff (GAP50; binding, surface plasmon resonance; 1:1 binding model): 0.0017 s⁻¹
CCC1(O)CCCN(C(=O)c2ccc(-c3ccc(F)c(NC(=O)CCl)c3)cc2)C1 (stereo not shown) — protein adduct (DNA dC->dU-editing enzyme APOBEC-3B, C-terminal domain (Homo sapiens, UniProt Q9UH17); covalent modifier, intact protein mass spectrometry, refers to: adduct +26104 Da; 500 µM, 1 h, 20-fold molar excess): 5.5%
Cc1cc(C)n2nc(C)c(-c3ccc(F)cc3)c2n1 — Hill slope (3-oxoacyl-[acyl-carrier-protein] reductase FabG (fabG, Pseudomonas aeruginosa, UniProt O54438); enzyme activity, inhibitor, NADPH fluorescence; reverse reaction, together with: 3-OH-decanoyl-NAC, NADP): 1.3
O=C(CCCCC1SC[C@@H]2NC(=O)N[C@H]12)NCCCN(CCCN1CCN(C2CCCCC2)CC1)CC(=O)Nc1ccc(C(=O)c2ccccc2)cc1 (stereo in doubt) — Ki ratio (Sigma intracellular receptor 2 (TMEM97, Homo sapiens, UniProt Q5BJF2); radioligand binding; RT-4 cell membranes; reference: sigma1 Ki over sigma2 Ki): 2.56
c1ccc(Oc2ccc(-c3cc(C4CCOCC4)[nH]n3)cc2)cc1 — koff (GAP50; binding, surface plasmon resonance; 1:1 binding model): 0.0195 s⁻¹
